Assay results gathered from unrelated publications.
Numbered parts are unrelated; each lists some results of a single study. Positions count from the first letter of the parent shown.

Set 1
Target: Sal-like protein 4, full length isoform A (SALL4, Homo sapiens, UniProt Q9UJQ4, residues 1-1053)
Sequence of UniProt Q9UJQ4 (whole entry, looked up): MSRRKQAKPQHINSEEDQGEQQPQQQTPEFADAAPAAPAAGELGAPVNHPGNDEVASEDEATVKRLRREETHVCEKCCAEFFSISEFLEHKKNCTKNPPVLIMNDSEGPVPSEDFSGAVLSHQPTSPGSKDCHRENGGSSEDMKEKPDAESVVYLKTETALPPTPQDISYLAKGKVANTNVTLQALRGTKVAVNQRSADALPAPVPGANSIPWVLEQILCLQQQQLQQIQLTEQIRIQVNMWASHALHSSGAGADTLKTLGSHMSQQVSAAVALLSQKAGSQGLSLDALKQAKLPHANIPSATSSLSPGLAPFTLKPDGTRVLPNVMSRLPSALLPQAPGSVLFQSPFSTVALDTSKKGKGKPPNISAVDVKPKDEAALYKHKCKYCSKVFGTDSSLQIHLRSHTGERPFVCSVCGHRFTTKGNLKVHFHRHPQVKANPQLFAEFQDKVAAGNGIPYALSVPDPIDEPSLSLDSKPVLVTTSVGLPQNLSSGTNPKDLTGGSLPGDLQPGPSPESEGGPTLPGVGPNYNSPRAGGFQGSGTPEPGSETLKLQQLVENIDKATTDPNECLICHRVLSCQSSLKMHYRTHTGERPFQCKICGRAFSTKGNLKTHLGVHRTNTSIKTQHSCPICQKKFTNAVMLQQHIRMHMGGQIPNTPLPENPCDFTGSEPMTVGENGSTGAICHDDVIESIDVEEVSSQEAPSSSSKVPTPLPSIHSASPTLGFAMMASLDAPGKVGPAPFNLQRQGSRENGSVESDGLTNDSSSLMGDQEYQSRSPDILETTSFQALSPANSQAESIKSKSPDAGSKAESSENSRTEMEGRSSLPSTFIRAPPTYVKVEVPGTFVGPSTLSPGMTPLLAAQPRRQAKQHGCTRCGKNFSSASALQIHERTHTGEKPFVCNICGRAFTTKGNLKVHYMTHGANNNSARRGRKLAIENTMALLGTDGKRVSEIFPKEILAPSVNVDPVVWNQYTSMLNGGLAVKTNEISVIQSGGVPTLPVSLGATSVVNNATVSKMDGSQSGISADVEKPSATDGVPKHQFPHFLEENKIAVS
Technique: universal PBM
Form: double-stranded DNA, one strand shown
Matrix: in vitro
Tested at: 600 nM
Notes: 8-mer, flanks averaged, mean of replicates
Reading: higher = stronger binding
For `CCGCATTA`, the E-score was 0.0463.
The E-score of `GAGCGCTA` is reported as -0.168.
The E-score of `ATAGTATG` is reported as 0.292.
`GGACACCC` has an E-score of -0.401.
`AAAGGTCA` has an E-score of -0.0849.
`GAGTACCA` gave an E-score of 0.038.
With `CCTACGAG` the E-score was -0.144.
The E-score of `CACATTGC` is reported as 0.0403.
For `TATCAACA`, the E-score was 0.287.

Set 2
Target: ABI1, truncated, D143A, DHFR fusion (Arabidopsis thaliana)
Technique: DHFR PCA, deep sequencing
Matrix: yeast
Notes: methotrexate growth selection, single substitutions
Added: (+)-ABA 4.8 µM
Reference: wild-type fitted maximum
Reading: higher = stronger binding
Starting sequence: PYL1, truncated, DHFR fusion (Arabidopsis thaliana); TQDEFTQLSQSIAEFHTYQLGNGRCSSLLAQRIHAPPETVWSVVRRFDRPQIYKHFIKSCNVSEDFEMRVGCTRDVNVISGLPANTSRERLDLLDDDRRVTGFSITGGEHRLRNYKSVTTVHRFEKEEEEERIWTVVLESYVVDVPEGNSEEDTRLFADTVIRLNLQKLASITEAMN; partner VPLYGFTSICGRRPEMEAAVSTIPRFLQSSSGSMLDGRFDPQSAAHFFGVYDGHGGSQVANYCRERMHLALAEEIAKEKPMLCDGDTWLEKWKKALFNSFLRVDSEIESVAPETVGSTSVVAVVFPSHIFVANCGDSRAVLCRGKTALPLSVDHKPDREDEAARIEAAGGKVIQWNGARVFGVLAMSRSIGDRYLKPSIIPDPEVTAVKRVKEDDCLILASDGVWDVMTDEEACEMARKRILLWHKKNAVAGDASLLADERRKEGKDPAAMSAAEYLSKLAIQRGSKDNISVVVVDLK
`V142R`: “relative binding score” 28.8%.
For `N177C`, “relative binding score” read 85.9%.
`S9F` — result for “relative binding score”: 43.3%.
Under “relative binding score”, `G107R` is recorded as 6.13%.
For `L8G`, “relative binding score” read 3.65%.
`E130Y`: “relative binding score” 52.4%.
Under “relative binding score”, `E125V` is recorded as 82.6%.
For `R46G`, “relative binding score” read 14.4%.
`D65C` — result for “relative binding score”: 56.3%.
`C60S`: “relative binding score” 15.6%.
Under “relative binding score”, `T119A` is recorded as -3.3%.

Set 3
Target: CCNF, cyclin fold, Cln2 fusion (human)
Technique: yeast growth competition, sequencing
Matrix: yeast
Notes: strong parent motif
Reference: not given
Reading: higher = stronger binding
Starting sequence: SAMHD1 docking peptide (human); ASKSRVQLFKDDP
Under “normalised enrichment score”, `D11M` is recorded as 0.869.
For `K3Q`, “normalised enrichment score” read 1.11.
For `R5A`, “normalised enrichment score” read 0.106.
`S2T`: “normalised enrichment score” 1.56.
Under “normalised enrichment score”, `D11C` is recorded as 0.977.
`L8F` — result for “normalised enrichment score”: -0.0435.
Under “normalised enrichment score”, `V6R` is recorded as 6.65.
Under “normalised enrichment score”, `K10Q` is recorded as 0.428.
`K3H` — result for “normalised enrichment score”: 1.61.
`L8K`: “normalised enrichment score” 0.288.
`Q7F`: “normalised enrichment score” 0.391.

Other studies, line by line
For `PhoQ, residues 284 288 289 292 302 303 QWQEDG`, the fold induction was 16.9 (PhoP, residues 12 14 15 18 19 LYFRQ (Escherichia coli, UniProt P23836); Sort-seq, refers to: YFP reporter; E. coli; PhoQ-PhoP variant library, added: 10 µM Mg2+; reference: high Mg2+ state, higher = stronger signaling).
